Literature values as cited in several papers.
Compare with care: the assays were run in different laboratories. ± marks the error that the study gave.

SMILES	target	assay	test system	setting	IC50
COc1ccc2c(OCc3nnc4ccc(-c5cc(F)c(F)c(F)c5)nn34)ccnc2c1	c-Met kinase (MET)	inhibitor	–	–	4 ± 1 nM
COc1ccccc1NC(=O)N[C@H](C(=O)Nc1ccc(C(=O)NO)cc1)c1ccccc1	HDAC	enzyme activity	HeLa nuclear extract	–	7.5 nM
CCc1ccc(Cn2cc(-c3cc(-c4ccc(Br)cc4)nc(N)n3)c3ccccc32)cc1	c-MET	inhibitor	–	–	595 nM
OC[C@H]1O[C@@H](OCc2cn([C@H]3[C@H](O)[C@@H](O)[C@H](c4cn([C@H]5[C@H](O)[C@@H](O)[C@H](n6cc([C@@H]7O[C@H](CO)[C@@H](n8cc(CO[C@@H]9O[C@H](CO)[C@H](O)[C@H](O)[C@H]9O)nn8)[C@H](O)[C@H]7O)nn6)O[C@@H]5CO)nn4)O[C@@H]3CO)nn2)[C@H](O)[C@@H](O)[C@H]1O	LecA (Pseudomonas aeruginosa)	ELISA	–	–	2.7 nM
Cc1cc(C)c(CNC(=O)c2c(O)c(O)cc3c(O)c(-c4c(C)cc5c(C(=O)NCc6c(C)cc(C)cc6C)c(O)c(O)cc5c4O)c(C)cc23)c(C)c1	Bcl-xL (human)	binding, fluorescence polarization	–	together with: fluorescent BH3 Bid peptide	~1000 nM
OC1CCCC1n1cc(-c2cnn3ccc(N4CCC[C@@H]4c4cc(F)ccc4F)nc23)cn1 (stereo partly drawn)	TRKA G595R	inhibitor	–	–	1.02 nM
O=c1cc2n(cc1O)-c1ccccc1SC2	membrane-bound catechol O-methyltransferase	inhibitor	–	–	100 nM
O=C(Nc1ccc(Cl)c(-c2nc3ncccc3o2)c1)c1cccs1	Plasmodium falciparum ENT1	[3H]adenosine uptake	PfENT1-expressing yeast	–	38.4 ± 16.5 nM
COC(=O)c1ccc2c(c1)NC(=O)/C2=C(\Nc1ccc2c(c1)CCN2C(=O)CN1CCOCC1)c1ccccc1	PDGFR alpha	inhibitor	–	–	26 nM
CC(=NN=C1SCC(=O)N1Cc1cn(C2OCC(O)C(O)C2O)nn1)c1cccnc1 (stereo not drawn)	CDK2	enzyme activity, inhibitor	–	–	180 nM
COc1ccc(C(=O)N2CCC(CN3CCC(O)(c4ccccc4)CC3)C(c3ccc4ccccc4c3)C2)c(OC)c1 (stereo not drawn)	PilF	inhibitor	–	–	175000 nM
O=C(O[C@@H]1Cc2c(O)cc(O)cc2O[C@@H]1c1cc(O)c(O)c(O)c1)c1cc(O)c(O)c(O)c1	PARP16 (GST-tagged)	enzyme activity, inhibitor	–	–	14500 nM
CSc1nc(-c2ccc(F)cc2)c(-c2ccnc(Nc3ccc(N)cc3)c2)[nH]1	p38α MAPK	inhibitor	–	–	17 nM
COc1cc(F)c(C(C)C)cc1C1=C(CN2C(=O)O[C@H](c3cc(C(F)(F)F)cc(C(F)(F)F)c3)[C@@H]2C)CC(C)(C)CC1	CETP	ex vivo CETP activity, inhibitor	dyslipidemic hamster	single dose 0.1 to 30 mg/kg	31.4 nM
CCOC(=O)C1=C(CSC(=S)N(C2CCCCC2)C2CCCCC2)N(C)C(=O)NC1c1ccccc1 (stereo not drawn)	mTOR	–	–	–	640 nM
CSC(=O)OCC1=CC(O)C2C(C(=O)O)=COC(OC3OC(CO)C(O)C(O)C3O)C12 (stereo not drawn)	P2Y14 receptor	antagonist	–	–	8290 nM
CC1(C)Cc2cc(Cl)ccc2C(NC(Cc2ccccc2)c2nc3ccccc3c(=O)[nH]2)=N1 (stereo not drawn)	BACE1	AlphaScreen	–	–	170 nM
N=C(N)SCc1ccccc1CSC(=N)N	DMT1	–	–	–	≥ 1000 nM

SMILES	target	assay	test system	setting	IC50
O=CN1CCN(c2ccc(/C=C3\C(=O)Nc4ccccc43)cc2)CC1	FGFR1	inhibitor	–	–	10000 to 20000 nM
CCc1ccc(CCNC(=O)c2c(O)c(O)cc3c(O)c(-c4c(C)cc5c(C(=O)NCCc6ccc(CC)cc6)c(O)c(O)cc5c4O)c(C)cc23)cc1	Bfl-1 (human)	binding, fluorescence polarization	–	together with: fluorescent BH3 Bid peptide	~1000 nM
CCOC(=O)c1cc(NC(=O)c2ccc(C)cc2)n(Cc2ccc(F)cc2)n1	P2Y14 receptor	antagonist	–	–	640 nM
COc1cc(COc2ccc3c(C)cc(=O)oc3c2)cc(OC)c1OC	Plasmodium falciparum ENT1	[3H]adenosine uptake	PfENT1-expressing yeast	–	2.4 ± 1.5 nM
O=C(O)C1CC1C(=O)c1ccc(Cl)c(Cl)c1 (stereo not drawn)	kynurenine 3-monooxygenase	enzyme activity	–	–	20 nM
CCn1c(SCC(=O)Nc2cccc(C(=O)/C=C/c3ccc(OC)cc3)c2)nc2ccccc2c1=O	BRAF V600E	kinase activity, inhibitor	–	–	4600 nM
COc1ccc(C2CC(c3ccc(Nc4ccnc5cc(Cl)ccc45)cc3)=NN2c2nc(C)cs2)cc1OC (stereo not drawn)	HER2	–	–	–	80 nM
COc1cnc(COc2ccc(F)c(F)c2)cc1-c1cc2c([nH]1)CCNC2=O	casein kinase 1 delta	enzyme activity, inhibitor	–	–	40 nM
CCCCCCCCc1ccc(OCC(=O)COc2ccc3c(c2)cc(C(=O)O)n3CCN(C)C)cc1	cPLA2α	inhibitor	–	–	> 10000 nM
CC(=O)c1sc(N/N=C(\C)c2cccs2)nc1C	CDK2	enzyme activity, inhibitor	–	–	390 nM
C[C@H](N)[C@H]1O[C@@H](O[C@@H]2[C@@H](O)[C@H](N)C[C@H](N)[C@H]2O[C@H]2O[C@H]([C@@H](C)O)[C@@H](O)[C@H](O)[C@H]2N)[C@H](O)[C@@H]1O	rabbit ribosome	translation, inhibitor, measured: firefly luciferase	rabbit reticulocyte lysate	–	1500 ± 80 nM
Cc1ccccc1/C=C/c1nc2ccccc2c(=O)[nH]1	Plasmodium falciparum ENT1	[3H]adenosine uptake	PfENT1-expressing yeast	–	3.9 ± 1.6 nM
CC[C@@H]1NC(=O)CNC(=O)[C@H](Cc2c[nH]c3ccccc23)NC(=O)[C@H](CC(=O)O)NC(=O)[C@H](CCC(N)=O)NC(=O)[C@H](Cc2c[nH]c3ccccc23)NC(=O)[C@H](C(C)C)NC(=O)[C@@H](NC(=O)[C@@H](NC(C)=O)[C@@H](C)CC)CSSC[C@@H](C(=O)N[C@H](C(N)=O)[C@@H](C)O)NC(=O)[C@H](CCCNC(=N)N)NC(=O)[C@H](Cc2c[nH]cn2)NC1=O	complement classical pathway	ELISA	–	–	1500 nM
COc1ccc(N2CCN(C(=O)ON3C(=O)C4CN(CC5CCN(Cc6ccccc6)CC5)CCN4C3=O)CC2)cc1 (stereo not drawn)	PPT1, recombinant	enzyme activity, inhibitor	–	–	100 nM
CCOc1ccc(Cc2cc(C3OC(SC)C(O)C(O)C3OC3OC(C(=O)O)C(O)C(O)C3O)ccc2Cl)cc1 (stereo not drawn)	SGLT2	–	–	–	> 10000 nM
COc1ccc(C2CC(c3ccc(OC)c(OC)c3)=NN2c2nc(-c3ccccc3)cs2)cc1 (stereo not drawn)	EGFR	inhibitor	–	–	9 nM
CCCC/C(=C(\c1ccccc1)c1ccc(S(C)(=O)=O)cc1)c1ccccc1	cyclooxygenase-2	enzyme activity, inhibitor	–	–	14 nM
CNC(=O)COc1ccc(-c2c(C#N)c(NC(=O)c3cccc(C[C@H](N)C(=O)O)c3)n3c(nc4ccccc43)c2C#N)cc1	LAT1	slowly reversible inhibitor	–	–	18200 nM
